Experimental data gathered from unrelated publications.
Each line is one published result; not all experiments were run side by side. ± marks the error that the study gave.
Method: steady-state kinetics
B1: SACOL1063 (Staphylococcus aureus, UniProt Q5HH30); chain MFSKVNNQKMLEDCFYIRKKVFVEEQGVPEESEIDEYESESIHLIGYDNGQPVATARIRPINETTVKIERVAVMKSHRGQGMGRMLMQAVESLAKDEGFYVATMNAQCHAIPFYESLNFKMRGNIFLEEGIEHIEMTKKLTSLN
B2: trypsin (Saccharopolyspora erythraea, UniProt Q54137); chain IVGGEDANVQDHPFTVALVTPDGQQFCGGTLAAPNKVVTAAHCTVGSQPADINVVSGRTVMSSNEGTVSKVTNVWVHPEYQDAAKGFDVSVLTLEAPVKEAPIELAKADDAGYAPDTAATILGWGNTSEGGQQADHLQKATVPVNSDDTCKQAYGEYTPDAMVCAGVPEGGVDTCQGDSGGPMVVNNKLIGVTSWGEGCARPGKPGVYARVGAYYDVLMEQINAGAVSAR
B3: vioC (Streptomyces vinaceus, UniProt Q6WZB0); chain MTESPTTHHGAAPPDSVATPVRPWSEFRLTPAEAAAAAALAARCAQRYDETDGPEFLLDAPVIAHELPRRLRTFMARARLDAWPHALVVRGNPVDDAALGSTPVHWRTARTPGSRPLSFLLMLYAGLLGDVFGWATQQDGRVVTDVLPIKGGEHTLVSSSSRQELGWHTEDAFSPYRADYVGLLSLRNPDGVATTLAGVPLDDLDERTLDVLFQERFLIRPDDSHLQVNNSTAQQGRVEFEGIAQAADRPEPVAILTGHRAAPHLRVDGDFSAPAEGDEEAAAALGTLRKLIDASLYELVLDQGDVAFIDNRRAVHGRRAFQPRYDGRDRWLKRINITRDLHRSRKAWAGDSRVLGQR
B4: POLH (Homo sapiens, UniProt Q9Y253); chain MATGQDRVVALVDMDCFFVQVEQRQNPHLRNKPCAVVQYKSWKGGGIIAVSYEARAFGVTRSMWADDAKKLCPDLLLAQVRESRGKANLTKYREASVEVMEIMSRFAVIERASIDEAYVDLTSAVQERLQKLQGQPISADLLPSTYIEGLPQGPTTAEETVQKEGMRKQGLFQWLDSLQIDNLTSPDLQLTVGAVIVEEMRAAIERETGFQCSAGISHNKVLAKLACGLNKPNRQTLVSHGSVPQLFSQMPIRKIRSLGGKLGASVIEILGIEYMGELTQFTESQLQSHFGEKNGSWLYAMCRGIEHDPVKPRQLPKTIGCSKNFPGKTALATREQVQWWLLQLAQELEERLTKDRNDNDRVATQLVVSIRVQGDKRLSSLRRCCALTRYDAHKMSHDAFTVIKNCNTSGIQTEWSPPLTMLFLCATKFSASAPSSSTDITSFLSSDPSSLPKVPVTSSEAKTQGSGPAVTATKKATTSLESFFQKAAERQKVKEASLSSLTAPTQAPMSNSPSKPSLPFQTSQSTGTEPFFKQKSLLLKQKQLNNSSVSSPQQNPWSNCKALPNSLPTEYPGCVPVCEGVSKLEESSKATPAEMDLAHNSQSMHASSASKSVLEVTQKATPNPSLLAAEDQVPCEKCGSLVPVWDMPEHMDYHFALELQKSFLQPHSSNPQVVSAVSHQGKRNPKSPLACTNKRPRPEGMQTLESFFKPLTH
B5: enzyme (Plasmodium falciparum, UniProt Q8ILK1); chain MTNKFNKINKNNYETREAVYYDKGNRINSNKEKEMKEFKEEELKEFFNKWNPFYKEKLNSEIEKKNFINFDGEKKMENGNNEYFNSYNYIHIHEDMIKDEVRTRTYYDSIRKNEHLIKDKIVLDVGCGTGILSFFAATHGAKHVYSIEKSDIIYTAIKIRDENNLTDKVTFLKGLAEEIELPVDKVDIIISEWMGYCLLYENMLDTVLYCRDKWLKEGGLIFPDKAHMYIAGIEDSLYREEKFDFWKNCYDLNFSSVLPIIKEEVVIDYVDRNFVVTDTCCILTLDLNTCTPDQLSFVSPFQLKMIRKDYLHALVIWFDISFSACHTEVNFTTGPYGAHTHWKQIVLYTDHIITAERNETLKGIFALKRNQKNKRHLDMKLHYIFDGVHTKAKSTQLFNIS
B6: carbamoyl phosphate synthetase large subunit (Escherichia coli, UniProt P00968); chain PKRTDIKSILILGAGPIVIGQACEFDYSGAQACKALREEGYRVILVNSNPATIMTDPEMADATYIEPIHWEVVRKIIEKERPDAVLPTMGGQTALNCALELERQGVLEEFGVTMIGATADAIDKAEDRRRFDVAMKKIGLETARSGIAHTMEEALAVAADVGFPCIIRPSFTMGGSGGGIAYNREEFEEICARGLDLSPTKELLIDESLIGWKEYEMEVVRDKNDNCIIVCSIENFDAMGIHTGDSITVAPAQTLTDKEYQIMRNASMAVLREIGVETGGSNVQFAVNPKNGRLIVIEMNPRVSRSSALASKATGFPIAKVAAKLAVGYTLDELMNDITGGRTPASFEPSIDYVVTKIPRFNFEKFAGANDRLTTQMKSVGEVMAIGRTQQESLQKALRGLEVGATGFDPKVSLDDPEALTKIRRELKDAGADRIWYIADAFRAGLSVDGVFNLTNIDRWFLVQIEELVRLEEKVAEVGITGLNADFLRQLKRKGFADARLAKLAGVREAEIRKLRDQYDLHPVYKRVDTCAAEFATDTAYMYSTYEEECEANPSTDREKIMVLGGGPNRIGQGIEFDYCCVHASLALREDGYETIMVNCNPETVSTDYDTSDRLYFEPVTLEDVLEIVRIEKPKGVIVQYGGQTPLKLARALEAAGVPVIGTSPDAIDRAEDRERFQHAVERLKLKQPANATVTAIEMAVEKAKEIGYPLVVRPSYVLGGRAMEIVYDEADLRRYFQTAVSVSNDAPVLLDHFLDDAVEVDVDAICDGEMVLIGGIMEHIEQAGVHSGDSACSLPAYTLSQEIQDVMRQQVQKLAFELQVRGLMNVQFAVKNNEVYLIEVNPRAARTVPFVSKATGVPLAKVAARVMAGKSLAEQGVTKEVIPPYYSVKEVVLPFNKFPGVDPLLGPEMRSTGEVMGVGRTFAEAFAKAQLGSNSTMKKHGRALLSVREGDKERVVDLAAKLLKQGFELDATHGTAIVLGEAGINPRLVNKVHEGRPHIQDRIKNGEYTYIINTTSGRRAIEDSRVIRRSALQYKVHYDTTLNGGFATAMALNADATEKVISVQEMHAQIK
B7: Mgst1 unactivated (Rattus norvegicus, UniProt P08011); chain ADLKQLMDNEVLMAFTSYATIILAKMMFLSSATAFQRLTNKVFANPEDCAGFGKGENAKKFLRTDEKVERVRRAHLNDLENIVPFLGIGLLYSLSGPDLSTALIHFRIFVGARIYHTIAYLTPLPQPNRGLAFFVGYGVTLSMAYRLLRSRLYL
B8: enzyme (Streptomyces purpurascens, UniProt Q54527); chain MSSSSPGEPLEPTDQDLDVLLKNLGNLVTPMALRVAATLRLVDHLLAGADTLAGLADRTDTHPQALSRLVRHLTVVGVLEGGEKQGRPLRPTRLGMLLADGHPAQQRAWLDLNGAVSHADLAFTGLLDVVRTGRPAYAGRYGRPFWEDLSADVALADSFDALMSCDEDLAYEAPADAYDWSAVRHVLDVGGGNGGMLAAIALRAPHLRGTLVELAGPAERARRRFADAGLADRVTVAEGDFFKPLPVTADVVLLSFVLLNWSDEDALTILRGCVRALEPGGRLLVLDRADVEGDGADRFFSTLLDLRMLTFMGGRVRTRDEVVDLAGSAGLALASERTSGSTTLPFDFSILEFTAVSEEAAPAAQASEALPAQE
B9: BshA S17A (Bacillus subtilis, UniProt P42982); chain MRKLKIGITCYPSVGGAGIIATELGKQLAEKGHEIHFITSSIPFRLNTYHPNIHFHEVEVNQYAVFKYPPYDLTLASKIAEVAERENLDIIHAHYALPHAVCAYLAKQMLKRNIGIVTTLHGTDITVLGYDPSLKDLIRFAIESSDRVTAVSSALAAETYDLIKPEKKIETIYNFIDERVYLKKNTAAIKEKHGILPDEKVVIHVSNFRKVKRVQDVIRVFRNIAGKTKAKLLLVGDGPEKSTACELIRKYGLEDQVLMLGNQDRVEDLYSISDLKLLLSEKESFGLVLLEAMACGVPCIGTNIGGIPEVIKNNVSGFLVDVGDVTAATARAMSILEDEQLSNRFTKAAIEMLENEFSSKKIVSQYEQIYADLAEPE
B10: PhnY (uncultured bacterium HF130_AEPn_1, UniProt D0E8I4); chain MSYFTQEQKTQWKDNGFVHLKGFLNEALAQDIKDWTQELYEWEEAPGKWMKYFETSSDTGERLLCRVENFIDYHKGIKGFLCGEMIYGMVSELMGEQAVLFKEKINFKYPGGAGFAYHQDAPAFTSFGQKYHITMMVSVDASNEENGCLRMAHGFSEEKTLEQEPDGTVCKKLAAKLDWRPLETGPGDLVLFNSYVPHYSEANTSDRSRRAMFITYNRLSEGEKRLDYFKDKREKFPPEAERIEGKDYSSAESLYNLGNPIK
Chain of UniProt A8M783 (whole entry, looked up): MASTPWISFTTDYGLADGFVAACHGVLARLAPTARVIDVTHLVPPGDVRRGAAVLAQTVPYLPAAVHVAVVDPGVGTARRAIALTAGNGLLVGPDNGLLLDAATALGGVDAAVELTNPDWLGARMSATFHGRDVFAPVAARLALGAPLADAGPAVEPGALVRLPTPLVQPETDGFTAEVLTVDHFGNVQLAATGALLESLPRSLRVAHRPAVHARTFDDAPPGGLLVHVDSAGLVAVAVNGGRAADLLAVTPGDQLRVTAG
Chain of UniProt Q7L266 (whole entry, looked up): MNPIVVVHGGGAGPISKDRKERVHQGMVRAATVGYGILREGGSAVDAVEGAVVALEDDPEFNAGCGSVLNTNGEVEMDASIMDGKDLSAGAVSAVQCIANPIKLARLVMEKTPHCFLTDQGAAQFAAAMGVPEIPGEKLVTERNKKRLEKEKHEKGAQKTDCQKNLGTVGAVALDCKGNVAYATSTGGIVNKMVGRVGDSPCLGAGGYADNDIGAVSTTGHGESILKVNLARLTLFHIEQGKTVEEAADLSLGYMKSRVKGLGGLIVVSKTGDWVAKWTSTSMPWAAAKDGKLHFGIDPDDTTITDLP

Molecule	substrate	conditions	kcat [s⁻¹]
ASRGL1 (Homo sapiens, UniProt Q7L266)	N[C@@H](CC(=O)N[C@@H](Cc1ccccc1)C(=O)O)C(=O)O	pH 7.4, 37 °C, NaCl 100 mM	3 ± 0.1
Ptb (Listeria monocytogenes, UniProt Q8Y7B7)	CCCC(=O)SCCNC(=O)CCNC(=O)[C@H](O)C(C)(C)COP(=O)(O)OP(=O)(O)OC[C@H]1O[C@@H](n2cnc3c(N)ncnc32)[C@H](O)[C@@H]1OP(=O)(O)O	pH 7.5, 25 °C, apparent	674 ± 25.2
B1 (SACOL1063)	CC(=O)SCCNC(=O)CCNC(=O)[C@H](O)C(C)(C)COP(=O)(O)OP(=O)(O)OC[C@H]1O[C@@H](n2cnc3c(N)ncnc32)[C@H](O)[C@@H]1OP(=O)(O)O	pH 8, 37 °C, with: L-Thr 10 mM, AcCoA 0-2 mM	5.37
B2 (trypsin)	N=C(N)NCCC[C@H](NC(=O)c1ccccc1)C(=O)Nc1ccc([N+](=O)[O-])cc1	pH 8, 25 °C	3.15 ± 0.07
enzyme (Pseudomonas putida, UniProt Q88P31)	NC(=O)c1ccc[n+]([C@@H]2O[C@H](COP(=O)(O)OP(=O)(O)OC[C@H]3O[C@@H](n4cnc5c(N)ncnc54)[C@H](O)[C@@H]3O)[C@@H](O)[C@H]2O)c1	pH 8, 30 °C	277 ± 2
protein (Triticum aestivum, UniProt G9M5S8)	CC(C)=CCC/C(C)=C/CC/C(C)=C/CO[P@@](=O)(O)OP(=O)(O)O	30 °C	0.45 ± 0.01
B3 (vioC)	N=C(N)NOCC[C@H](N)C(=O)O	pH 8, 30 °C, with: alpha-ketoglutarate 1.0 mM	1.22 ± 0.065
B4 (POLH)	Cc1cn([C@H]2C[C@H](O)[C@@H](COP(=O)(O)OP(=O)(O)OP(=O)(O)O)O2)c(=O)[nH]c1=O	pH 8, 37 °C, misinsertion opposite dT, with: Mg2+	0.00233 ± 6.67e-05
B5 (enzyme)	C[S+](CC[C@H](N)C(=O)[O-])C[C@H]1O[C@@H](n2cnc3c(N)ncnc32)[C@H](O)[C@@H]1O	37 °C	0.0142 ± 0.00133
B6	Nc1ncnc2c1ncn2[C@@H]1O[C@H](COP(=O)(O)OP(=O)(O)OP(=O)(O)O)[C@@H](O)[C@H]1O	pH 7.6, KCl 100 mM, with: glutamine 10 mM, ornithine 10 mM	3.6 ± 0.11
B7 (Mgst1 unactivated)	NC(=O)c1ccc(Cl)c([N+](=O)[O-])c1	pH 6.5, 5 °C, potassium phosphate 0.1 M, unactivated enzyme, with: GSH 5 mM	0.0099 ± 0.0005
B8 (enzyme)	CC[C@@]1(O)C[C@H](O[C@H]2C[C@H](N)[C@H](O)[C@H](C)O2)c2c(O)c3c(c(O)c2[C@H]1C(=O)O)C(=O)c1cccc(O)c1C3=O	pH 7.5, 30 °C	9.45 ± 0.383
alanine aminopeptidase (Neisseria meningitidis, UniProt Q9JYV4)	N=C(N)NCCC[C@H](N)C(=O)Nc1ccc2c(CC(N)=O)cc(=O)oc2c1	pH 7.5, 37 °C	13.1 ± 0.6
B9 (BshA S17A)	CC(=O)N[C@H]1[C@@H](OP(=O)(O)OP(=O)(O)OC[C@H]2O[C@@H](n3ccc(=O)[nH]c3=O)[C@H](O)[C@@H]2O)O[C@H](CO)[C@@H](O)[C@@H]1O	pH 7.5, 21 °C, with: malate 0–25 mM	2.5 ± 0.1
protein (Salinispora arenicola, UniProt A8M783)	I	pH 7.9, 37 °C, apparent, with: SAM	0.000139
B10 (PhnY)	NCCP(=O)(O)O	apparent, two-enzyme system, with: O2, alpha-ketoglutarate, Fe(II)	0.91 ± 0.15
pgmB (Lactococcus lactis, UniProt P71447)	O=P(O)(O)OC[C@H]1O[C@@H](OP(=O)(O)O)[C@H](O)[C@@H](O)[C@@H]1O	pH 7, 25 °C	0.0298 ± 0.008

Excerpt of the above:
Molecule	substrate	conditions	kcat [s⁻¹]
alanine aminopeptidase (Neisseria meningitidis, UniProt Q9JYV4)	N=C(N)NCCC[C@H](N)C(=O)Nc1ccc2c(CC(N)=O)cc(=O)oc2c1	pH 7.5, 37 °C	13.1 ± 0.6
